Published values collected from several papers.
± gives the spread as reported.
Chain of UniProt P10632 (whole entry, looked up): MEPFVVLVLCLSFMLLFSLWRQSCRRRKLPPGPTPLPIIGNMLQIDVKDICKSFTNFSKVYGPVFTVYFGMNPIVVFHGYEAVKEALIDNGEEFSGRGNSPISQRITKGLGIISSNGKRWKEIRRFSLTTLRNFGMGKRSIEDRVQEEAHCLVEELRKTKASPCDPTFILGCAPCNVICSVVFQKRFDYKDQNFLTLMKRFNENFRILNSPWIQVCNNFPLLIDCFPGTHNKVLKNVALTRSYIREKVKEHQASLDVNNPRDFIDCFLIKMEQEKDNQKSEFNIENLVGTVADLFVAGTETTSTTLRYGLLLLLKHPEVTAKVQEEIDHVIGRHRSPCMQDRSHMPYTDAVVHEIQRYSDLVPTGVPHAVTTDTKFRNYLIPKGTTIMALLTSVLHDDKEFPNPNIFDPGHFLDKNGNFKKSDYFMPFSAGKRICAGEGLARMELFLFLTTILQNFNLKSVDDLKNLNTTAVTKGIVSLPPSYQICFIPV

SMILES	target or system	test	test system	conditions	how to read	quantity	result
O=C(c1ccc(F)c(F)c1Nc1ccc(I)cc1F)N1CC(O)([C@@H]2CCCCN2)C1	–	–	patients aged sample A to sample B years	oral, dose not given	–	AE leading dose modification	29%
CC(C)CC(=O)OC[C@H]1O[C@@](C#N)(c2ccc3c(N)ncnn23)[C@H](O)[C@@H]1O	Cytochrome P450 2C8 (CYP2C8, Homo sapiens, UniProt P10632)	metabolic stability	recombinant enzyme	1 µM	–	intrinsic clearance	4.47 ± 0.13 µL/min/pmol
CN1CCN(CCCN2c3ccccc3Sc3ccccc32)CC1	African green monkey cells	–	–	5 days	–	CC50	14.6 µM
Cc1ncc2n1-c1ccc(Cl)cc1C(c1ccccc1F)=NC2	–	–	wild-type mice, plasma	intravenous, 0.3 mg/kg, with: 14-day BC 500 mg/kg	–	clearance	149 ± 27 mL/min
CC(=O)Oc1ccc2c3c1O[C@H]1[C@@H](OC(C)=O)C=C[C@H]4[C@@H](C2)N(C)CC[C@@]341	–	–	rat, whole blood	10 nM, 4 h, room temperature, bench-top storage	–	stability bias	-13.2%
Cc1ncc2n1-c1ccc(Cl)cc1C(c1ccccc1F)=NC2	–	–	healthy human volunteers, plasma	oral, dose not given, CYP3A probe substrate, with: multiple-dose momelotinib	reference: compound alone	decrease in Cmax	8%
CN1[C@@H]2CC[C@H]1C[C@@H](OC1c3ccccc3CCc3ccccc31)C2	African green monkey cells	–	–	5 days	–	CC50	13.5 µM
CCc1ccc(CC/C=C/c2ccc3c(c2)C(=O)CC3)cc1	–	–	Sprague-Dawley rat, female	oral, 30 mg/kg/day, 14 days	–	GGT serum activity	1 U/L
C[C@H](Cc1ccc(O)c(O)c1)[C@@H](C)Cc1ccc(O)c(O)c1	African green monkey cells	–	–	5 days	–	CC50	37.2 µM
CO[C@H]1C[C@@H]2CC[C@@H](C)[C@@](O)(O2)C(=O)C(=O)N2CCCC[C@H]2C(=O)O[C@H]([C@H](C)C[C@@H]2CC[C@@H](OC(=O)NCCOCCOCCOCCOCCOCCOCCOCCOCCC(=O)N3CCc4cc(Cn5nc(-c6ccc7oc(N)nc7c6)c6c(N)ncnc65)ccc4C3)[C@H](OC)C2)C[C@@H](O)[C@H](C)/C=C(\C)[C@@H](O)[C@@H](OC)C(=O)[C@H](C)C[C@H](C)/C=C/C=C/C=C/1C	–	–	patients with advanced solid tumours	intravenous, 6 mg weekly, grade 3 or higher	–	mucositis incidence	8.3%
CC(=O)[C@@]12O[C@](C)(c3ccccc3)O[C@@H]1C[C@H]1[C@@H]3CCC4=CC(=O)CC[C@]4(C)[C@H]3CC[C@@]12C	African green monkey cells	–	–	5 days	–	CC50	15.5 µM
CC(=O)O[C@H]1C=C[C@H]2[C@H]3Cc4ccc(O)c5c4[C@@]2(CCN3C)[C@H]1O5	–	–	rat, whole blood	500 nM, 4 months, -80 °C, long-term storage	–	stability bias	-2.32%
C[C@]1(CO)Cc2ncn(-c3ccc(C#N)c(Cl)c3)c2C(=O)O1	–	–	healthy humans	concentration not given, multiple dose part total	–	drug-related Somnolence incidence	2.2%
COc1cccc(-c2n[nH]c(SCc3ccccn3)n2)c1OC	Salmonella typhimurium	Ames test, preincubation	TA1535	0.13 mg/plate, with rat liver S9	–	revertant colonies per plate	15
COc1cc2c(Oc3ccc4[nH]c(C)cc4c3F)ccnc2cc1OCC1(N)CC1	–	–	paediatric refractory sarcoma patients	8 mg	–	mouth ulcer incidence	0%
COC(=O)[C@H]1[C@@H](OC(=O)c2ccccc2)C[C@@H]2CC[C@H]1N2	–	–	rat, whole blood	1000 nM, 4 months, -80 °C, long-term storage	–	stability bias	12.2%
O=[N+]([O-])c1ccc(N2CCC(NCCC(O)c3ccc(F)c4ccccc34)CC2)c(C(F)(F)F)c1 (centres unmarked)	Salmonella typhimurium	genotoxicity, SOS/umu test	TA1535/pSK1002	0.031 mg/mL, 4 h, with S9, full range	–	induction factor	0.87
CN1CC[C@]23c4c5ccc(O[C@@H]6O[C@H](C(=O)O)[C@@H](O)[C@H](O)[C@H]6O)c4O[C@H]2[C@@H](O)C=C[C@H]3[C@H]1C5	–	–	rat, whole blood	10 nM, 4 months, -80 °C, long-term storage	–	stability bias	19.3%
[Cl-].[Cl-].[Pt+2].[Ru+2].c1ccc(-c2nccnc2-c2ccccn2)nc1.c1cnc2c(c1)ccc1cccnc12.c1cnc2c(c1)ccc1cccnc12	Danio rerio	–	embryos	30 µM, 48 h	–	hatching rate	23 ± 2.8%
CN1CC[C@@H](c2c(O)cc(O)c3c(=O)cc(-c4ccc(C(F)(F)F)cc4Cl)oc23)[C@@H]1CO	–	measured: Nausea	AML	oral, 150 mg, intermittent dosing	–	patients with adverse event	25%
O=c1ccc2ccccc2o1	NHEK	cell count	–	concentration not given, 24 h, pH2AX and pH3 panel	–	chance response	0.01%
CCC1(CC)C(=O)NCC(C)C1=O (centres unmarked)	African green monkey cells	–	–	5 days	–	CC50	> 25.1 µM
COC(=O)[C@@H]1[C@H]2CC[C@@H](C[C@@H]1O)N2C	–	–	rat whole blood	500 nM, 4 months, -80 °C	–	stability bias	3.8%
O=C(O)CCc1nc(-c2ccccc2)c(-c2ccccc2)o1	African green monkey cells	–	–	5 days	–	CC50	> 50.1 µM
CC(=O)N1CCC(C(=O)N2CCN3C(=O)c4cc(-c5ccccc5)ccc4NC(=O)C3C2)CC1 (centres unmarked)	Escherichia coli	–	WP2 uvrA	5.0 µg/plate, with rat liver S9	reference: vehicle	revertant fold increase	1.2
COC(=O)C1=C(C)NC(C)=C(C(=O)OC2CCCN(Cc3ccccc3)C2)C1c1cccc([N+](=O)[O-])c1 (centres unmarked)	African green monkey cells	–	–	5 days	–	CC50	14.8 µM
O=C1c2c(O)c(=O)ccn2N([C@@H]2c3ccccc3SCc3c2ccc(F)c3F)[C@@H]2COCCN12	–	–	BALB/c mice, plasma	oral, 5 mg/kg baloxavir marboxil, 12 h	–	plasma concentration	3 ng/mL
CC[C@@H]1C(=O)N(C)c2cnc(Nc3ccc(C(=O)N[C@H]4CC[C@H](N5CCN(CC6CC6)CC5)CC4)cc3OC)nc2N1C(C)C	African green monkey cells	–	–	5 days	–	CC50	0.234 µM
Cc1cc(C(=O)NC(C)(C)COc2cccc3c2C(N)=NS(=O)(=O)N3)cc(C)n1	Salmonella typhimurium	Ames test, initial	TA1535	50.0 µg/plate	reference: solvent control	revertant ratio	1.4

Some of these lines once more:
SMILES	target or system	test	test system	conditions	how to read	quantity	result
CC(C)CC(=O)OC[C@H]1O[C@@](C#N)(c2ccc3c(N)ncnn23)[C@H](O)[C@@H]1O	Cytochrome P450 2C8 (CYP2C8, Homo sapiens, UniProt P10632)	metabolic stability	recombinant enzyme	1 µM	–	intrinsic clearance	4.47 ± 0.13 µL/min/pmol
COC(=O)C1=C(C)NC(C)=C(C(=O)OC2CCCN(Cc3ccccc3)C2)C1c1cccc([N+](=O)[O-])c1 (centres unmarked)	African green monkey cells	–	–	5 days	–	CC50	14.8 µM
